Measured values gathered from unrelated publications.
Each numbered part is a random draw from the data of one study; scales do not carry over between parts.

Sample 1 — method: RNA Bind-n-Seq; form: RNA; matrix: in vitro; concentration: 365 nM; reference: no-protein control; direction: higher = stronger binding
Target: RNA binding protein fox-1 homolog 2, RRM domain, GST-SBP tag (RBFOX2, Homo sapiens, UniProt O43251-10, residues 100-194)
Notes: natural RNA segment, single round, ends assumed
Construct (chain): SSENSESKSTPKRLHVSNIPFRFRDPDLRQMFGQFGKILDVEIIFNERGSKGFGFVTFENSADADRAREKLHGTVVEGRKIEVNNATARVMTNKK
| Strand | RBNS enrichment (R) |
| --- | --- |
| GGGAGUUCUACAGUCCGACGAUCAACAAAACACCUGAUUAAGCUCUUGAGUAUGGCAUAGGAAUUUUUUAGAAGAAUGCAUUCAAGGAUUCUUUUCCUUUCCUUCAGUGUCAUUAAUGUUAAAAGAGCAGCCAUGGAAUUCUCGGGUGCCAA | 0.575 |
| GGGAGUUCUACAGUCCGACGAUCCAGAUUCCCUGGAAUCCUUGGUUCAGGAAGGUGCUUGGGAAAGGGGUGUAGCCAGAAUAUUUUUUCCCUGCAAGCCCUAUGGGGUAGUAUCUAAUAAAUAUUCUGAGCAAUGGAAUUCUCGGGUGCCAA | 0.497 |
| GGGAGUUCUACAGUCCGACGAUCACCUGGGCCAUAGUCAUUCUGCCUGCCCUGAAAGUCCCAGAUCAAGCCUGCCUCAAUCAGUAUUCAUAUUUAUAGCCAGGUACCUUCUCACCUGUGAGACCAAAUUGAGCUGGAAUUCUCGGGUGCCAA | 0.381 |
| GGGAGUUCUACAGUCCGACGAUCGCUGGGGGCUUUCGGGGGCAGUUGCCCACCUCCUCAGGGCAGCUCUUUCUGGCCUUUUGGGGGGCAGUGUCUGUGCCAUGCCUAAUAGAUAUGACCAGACGCAUCCUAAGUGGAAUUCUCGGGUGCCAA | 0.355 |
| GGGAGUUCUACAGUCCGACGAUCGGGGUAGCUCCUGCCUGCUCUCCCUGCGUUGCCUAGGGUAAAGCCUCCAGAUUUGCCAUACUGAGCCCCUCUUCCUAGCAUCAGGCGAUACAUCUGAGUUCAAAUGUCUUUGGAAUUCUCGGGUGCCAA | 1.01 |
| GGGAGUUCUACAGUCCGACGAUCUCCACGCCUGUACAUUUCAGAUGGCAGCGAUUUGGGUCCUUGGGGCUUUUGGCCCUUGGCCAGAAGUGCAUGCUUUUCCUGAGCAGAGCACUUAGCAACCUUCCCCUCUCUGGAAUUCUCGGGUGCCAA | 0.467 |
| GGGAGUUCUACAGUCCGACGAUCUAAAAACCUAAUACUAAGCAAUAUGAAGCUGCACUCUGCUUUUAAGUGAGGCCAAGCCAAGUAAGCCAGAGGGGGAGGGGCAUUUGCUUUCCAAAUCCUAAGGAAAAAUGUGGAAUUCUCGGGUGCCAA | 0.415 |
| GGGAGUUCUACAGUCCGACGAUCAAGGAAGAACCAAAAGCCAAGUUAAAGCUGAGAGCACAAGUGCUGCAUGGAAAGGCAAUAUCUCUGGUGGAAAAAACUCGUCUACAUCGACCUCCGUUUGUACAUUCCAUUGGAAUUCUCGGGUGCCAA | 41 |
| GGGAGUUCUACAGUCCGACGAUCAAACUUUUAUUUCAUAAAUUUUAAAAUAAUUAUUUUUGAUUAUGAAUACUAGUCCAAAUUUAAUAUUUGACAGAAUUCGUAUUGCUUGCUAUAACAAGGAUAGUUUAUAGUGGAAUUCUCGGGUGCCAA | 1.63 |

Sample 2 — method: aptamer microarray, sandwich; form: DNA with 2'F-ANA; matrix: in vitro; concentration: 200 nM; with: Cy3 exosite-II aptamer, 400 nM; direction: higher = stronger binding; strand: GGTTGGTGTGGTTGG
Target: Prothrombin, mature alpha-thrombin (F2, Homo sapiens, UniProt P00734)
Notes: whole 15-mer aptamer, many near background
| Modification | mean fluorescence intensity [a.u.] |
| --- | --- |
| 2'F-ANA at 8 9 10 11 13 14 15 | 96.6 |
| 2'F-ANA at 1 2 3 4 10 13 | 52.7 |
| 2'F-ANA at 1 5 6 7 9 11 12 13 14 15 | 49.4 |
| 2'F-ANA at 1 2 4 6 8 9 10 14 15 | 50.4 |
| 2'F-ANA at 1 2 3 4 10 12 15 | 78.3 |
| 2'F-ANA at 2 4 6 7 8 12 13 | 406 |
| 2'F-ANA at 4 6 8 9 14 15 | 95.4 |
| 2'F-ANA at 1 6 11 12 15 | 276 |
| 2'F-ANA at 5 7 8 9 10 11 13 | 77.2 |
| 2'F-ANA at 1 2 3 4 5 6 7 9 14 15 | 46.3 |
| 2'F-ANA at 3 7 10 11 13 14 15 | 394 |
| 2'F-ANA at 3 4 5 9 11 13 | 64.5 |
| 2'F-ANA at 1 4 6 8 12 14 | 63.8 |
| 2'F-ANA at 1 2 4 9 10 12 13 15 | 61.3 |
| 2'F-ANA at 5 7 10 11 13 | 46.9 |
| 2'F-ANA at 4 8 9 10 12 13 14 15 | 58.3 |
| 2'F-ANA at 3 5 7 9 13 14 | 55.9 |
| 2'F-ANA at 2 4 8 9 11 14 | 79.8 |
| 2'F-ANA at 2 3 4 7 10 12 14 | 222 |
| 2'F-ANA at 2 3 4 9 10 14 15 | 180 |

Sample 3 — method: protein-binding microarray; form: double-stranded DNA, one strand shown; matrix: in vitro; concentration: 250 nM; notes: 60-bp whole probe; with: salmon DNA 0.4 mg/ml; reference: random background probes; direction: higher = stronger binding; shared flanks, not repeated: GCCTAGCAC … GTCTTGATTCGCTTGACGCTGCTG
Target: Interferon regulatory factor 7, full length, phosphomimetic (IRF7, Homo sapiens, UniProt Q92985, residues 1-503, S101K/S471D/S472D/S475D/S476D/S477D/S483D/S484D/S487D)
UniProt Q92985, sequence (whole entry, unmodified, looked up): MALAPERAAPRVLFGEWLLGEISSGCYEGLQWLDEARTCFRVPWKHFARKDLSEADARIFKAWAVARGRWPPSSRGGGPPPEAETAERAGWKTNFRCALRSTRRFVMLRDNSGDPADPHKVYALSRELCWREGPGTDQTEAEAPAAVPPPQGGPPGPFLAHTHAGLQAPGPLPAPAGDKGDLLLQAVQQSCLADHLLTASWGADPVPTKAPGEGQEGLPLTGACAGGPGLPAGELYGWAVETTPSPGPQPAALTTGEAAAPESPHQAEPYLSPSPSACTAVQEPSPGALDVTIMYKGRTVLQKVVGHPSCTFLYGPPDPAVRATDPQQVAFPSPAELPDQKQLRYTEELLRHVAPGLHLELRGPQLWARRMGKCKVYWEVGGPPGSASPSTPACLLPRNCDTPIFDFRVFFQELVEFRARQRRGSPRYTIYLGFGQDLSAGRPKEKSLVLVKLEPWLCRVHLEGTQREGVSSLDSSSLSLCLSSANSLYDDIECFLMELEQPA
| Strand | log fluorescence [z-score] |
| --- | --- |
| GACGGTCTCTTTCTCCTGACGTGCTAG | 0.674 |
| TCACATTTTGGTTTTCTACTGTGCTAG | 1.19 |
| TCAAATGCCCTTTTGGTACTGTGCTAG | 0.0362 |
| TCAACTCGCCTTTTTTGACTGTGCTAG | 0.251 |
| TCTTGTCTGGAGTCTCTGTTCGTGCTA | 0.823 |
| TTAGAACTAGGGTATCGATTAGTGCTA | 0.0443 |
| CACGGTTTCCTACTGCTGACGTGCTAG | 1.85 |
| TCATTTCCCACTTTCACACTGTGCTAG | 5.19 |
| GAGACTTTGCTCTGTGCATAGGTGCTA | -0.387 |
| TTAGGTCTTGGTATCGGTTAGTGCTAG | 1.34 |
| GACGGACTGGGGGCTGGGGACGTGCTA | 0.81 |
| GACGTTTTCGACTATCGGGACGTGCTA | 1.48 |
| TCTATAATGGATATATATCAGTGCTAG | 0.00892 |
| TCACATTTTAGTTTTCAACTGTGCTAG | 1.38 |
| TGAACTAGCGGGTCTTGCAGTGTGCTA | -1.09 |
| TTAGATATCAGTATCGGTTAGTGCTAG | 1.18 |
| TTAGATCTCAGGCTGGATTAGTGCTAG | -0.452 |
| GACTGACTGGACTATCGGGACGTGCTA | -0.196 |
| TTAGGTTCCGTTTTCGGTTAGTGCTAG | 8.5 |
| AACGGTATCGGTATCGGGACGTGCTAG | 1.53 |
| TTAGGTATCGGTATGGGTTAGTGCTAG | 1.36 |
| TTAGGTATCGGCCTCGGTTAGTGCTAG | 0.229 |

Sample 4 — method: universal PBM; form: double-stranded DNA, one strand shown; matrix: in vitro; concentration: not given; direction: higher = stronger binding
Target: Sal-like protein 4, full length isoform B (SALL4, Homo sapiens, UniProt Q9UJQ4-2, residues 1-616)
Notes: 8-mer, flanks averaged, mean of replicates
Target sequence (chain): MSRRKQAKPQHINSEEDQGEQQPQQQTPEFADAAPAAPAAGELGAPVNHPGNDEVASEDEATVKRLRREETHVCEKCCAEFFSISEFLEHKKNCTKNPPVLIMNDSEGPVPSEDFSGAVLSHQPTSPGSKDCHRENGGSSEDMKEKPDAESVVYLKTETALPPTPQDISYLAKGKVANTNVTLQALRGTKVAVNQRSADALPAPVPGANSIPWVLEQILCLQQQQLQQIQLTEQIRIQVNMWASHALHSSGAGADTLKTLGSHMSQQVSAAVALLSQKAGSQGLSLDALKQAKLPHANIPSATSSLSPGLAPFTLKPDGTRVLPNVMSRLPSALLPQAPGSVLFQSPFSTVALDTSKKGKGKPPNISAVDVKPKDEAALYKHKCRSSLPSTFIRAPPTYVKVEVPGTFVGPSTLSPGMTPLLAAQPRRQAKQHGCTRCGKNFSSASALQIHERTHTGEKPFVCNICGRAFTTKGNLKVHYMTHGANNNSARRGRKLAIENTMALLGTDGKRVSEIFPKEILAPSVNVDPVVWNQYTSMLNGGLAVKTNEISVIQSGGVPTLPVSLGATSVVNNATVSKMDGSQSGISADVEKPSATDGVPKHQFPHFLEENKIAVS
| Strand | E-score |
| --- | --- |
| CGGCTACG | -0.258 |
| AAATTGGC | 0.0706 |
| CGTAACGA | -0.0453 |
| CCAAACTA | 0.0741 |
| ATGTTTAG | 0.231 |
| CATCGTAC | 0.147 |
| CTGAGCAC | -0.234 |
| TTCAGGAA | -0.0468 |
| CAGTCTGA | -0.128 |
| CCACAGCA | -0.0903 |
| AACGTTTC | 0.174 |
| AATTGTTA | 0.345 |
| AAGGGAGA | -0.00233 |
| CCGTGACC | -0.312 |
| CCCGGGCC | -0.452 |
| AAAAAACG | 0.195 |
| CGGTAGGA | -0.171 |
| CGACGCGC | -0.0947 |
| GATGGAGA | -0.0743 |
| CTCCCTCA | -0.2 |
| AGTGATAC | 0.0846 |
| AGGACGCA | -0.234 |
| TAACTCGA | 0.137 |
| AGAAGTGC | -0.245 |
| CCTTCAGC | -0.256 |

Some of these lines once more (sample 3):
| Strand | log fluorescence [z-score] |
| --- | --- |
| TTAGGTATCGGCCTCGGTTAGTGCTAG | 0.229 |
| AACGGTATCGGTATCGGGACGTGCTAG | 1.53 |
| TGAACTAGCGGGTCTTGCAGTGTGCTA | -1.09 |
| TCATTTCCCACTTTCACACTGTGCTAG | 5.19 |
